{"data": "Measurements gathered from unrelated publications", "target": "Serine/threonine-protein kinase PAK 6 (PAK6, Homo sapiens, UniProt Q9NQU5)", "note": "Each line is one published result; not all experiments were run side by side. Values joined by “and” are separate records of one study, mostly repeats; a detail may differ."}
{"Structure (SMILES)": "C=CC(=O)N1CCCC(n2c(=O)c3ncccc3n(Cc3ccc(Oc4ccccc4)cc3)c2=O)C1 (stereo not drawn)", "test": "cell-free assay, competition with immobilised ligand", "conditions": "1 µM", "measurement": "remaining binding", "result": "100%"}
{"Structure (SMILES)": "Nc1ncc(-c2cc(-c3cnn(CC(F)(F)F)c3)ncc2F)nc1C(=O)NC1CNCC(F)C1 (stereo not drawn)", "test": "enzyme activity", "conditions": "1 µM", "scale": "relative to: DMSO control", "measurement": "remaining activity", "result": "92.2%"}
{"Structure (SMILES)": "CN1CCN(Cc2ccc(-c3ccc(CO[C@H]4CCC[C@@H]4NC(=O)c4cc(-c5cnn(C)c5)cnc4N)cc3)cc2)CC1", "test": "enzyme activity, inhibitor", "conditions": "0.1 µM", "measurement": "inhibition", "result": "8%"}
{"Structure (SMILES)": "Cc1cccc(O[C@H]2CCC[C@@H](C(C)CNCc3ccncc3)C2)c1 (relative stereo)", "test": "enzyme activity, inhibitor", "conditions": "10 µM", "measurement": "inhibition", "result": "-8%"}
{"Structure (SMILES)": "COCC12C(=O)NC3C4(C(OC)CC1O)C1CC5(O)C(OC)C(O)C(OC(C)=O)(C1C5OC(=O)c1ccccc1)C3(O)C(OC)C24 (stereo not drawn)", "test": "kinase activity, inhibitor, ProQinase kinase profiling", "conditions": "25 µM", "scale": "relative to: control", "measurement": "remaining activity", "result": "91% and 97%"}
{"Structure (SMILES)": "O=C=[N][Ru-4]123([n]4c5ccc(O)cc5c5c6c(c7cc(F)c[n+]1c7c54)C(=O)NC6=O)[S+]1CC[S+]2CC[S+]3CC1 (stereo not drawn)", "test": "enzyme activity", "conditions": "100 nM, human enzyme, added: 10 µM ATP", "scale": "relative to: untreated", "measurement": "remaining activity", "result": "96%"}
{"Structure (SMILES)": "CN1CC[C@@H](COc2cnc(C#N)cc2-c2ccn3nc(NC(=O)C4CC4)cc3c2)C1", "test": "inhibitor, KinaseProfiler panel", "conditions": "1 µM", "measurement": "inhibition", "result": "11%"}
{"Structure (SMILES)": "CC(C)=CC1OC(C)(C)C2C=C3C(=O)C(Cl)=CC(O)C3C3C(O)C4OC4C(=O)C132 (stereo not drawn)", "test": "cell-free assay, competition with immobilised ligand", "conditions": "10 µM", "measurement": "remaining binding", "result": "92%"}
{"Structure (SMILES)": "CNC(=O)C[C@H](Cc1ccc(C#N)cc1)NC(=O)c1cc(-c2ccc(CN[C@H](C)c3ccc(C)cc3)o2)ccc1Cl", "test": "enzyme activity, inhibitor", "conditions": "1 µM", "measurement": "activity vs control", "result": "96%"}
{"Structure (SMILES)": "C=CC(=O)Nc1cccc(-c2cnc3[nH]cc(C(=O)NC(C)(C)C)c3n2)c1", "test": "enzyme activity, inhibitor", "conditions": "0.1 µM", "measurement": "inhibition", "result": "3%"}
{"Structure (SMILES)": "NC(=O)C[C@H]1CCc2sc3ncnc(O[C@H]4CC[C@H](N5CCOCC5)CC4)c3c21", "test": "enzyme activity, inhibitor", "conditions": "10 µM", "measurement": "inhibition", "result": "5%"}
{"Structure (SMILES)": "COc1cc(Nc2nccc(-c3cnn4nc(OC)ccc34)n2)cc(C(F)(F)F)c1", "test": "binding, competition with immobilised ligand", "conditions": "1 µM", "measurement": "remaining binding", "result": "80%"}
{"Structure (SMILES)": "Cc1cccc(-c2ccc3nc(NC(=O)C4CCOCC4)nn3c2)c1", "test": "enzyme activity, Dundee kinase panel", "conditions": "10 µM", "measurement": "remaining activity", "result": "82%"}
{"Structure (SMILES)": "C=CC(=O)N1Cc2nc(-c3cc(-c4cc(Cl)cnc4Cl)c(F)cc3F)n(-c3ccncn3)c2C1", "test": "cell-free assay, inhibitor", "conditions": "1 µM", "measurement": "inhibition", "result": "5.1%"}
{"Structure (SMILES)": "Cc1ccc(C)c(-c2ccc3nc(NC(=O)C4CCCCC4)nn3c2)c1", "test": "enzyme activity, Dundee kinase panel", "conditions": "10 µM", "measurement": "remaining activity", "result": "83%"}
{"Structure (SMILES)": "COc1c(OCCCN2CCOCC2)ccc2c1N=C(NC(=O)c1cnc(N)nc1)N1CCN=C21", "test": "kinase activity, inhibitor", "conditions": "1 µM", "scale": "relative to: untreated control", "measurement": "remaining activity", "result": "108%"}
{"Structure (SMILES)": "CCn1cc(C(=O)O)c(=O)c2c(N)c(F)c(NC3CCCCC3)cc21", "test": "kinase activity", "conditions": "0.1 µM, added: ATP at Km", "measurement": "inhibition", "result": "-30%"}
{"Structure (SMILES)": "Cc1nc2c(F)cc(-c3nc(Nc4ccc(CNC(=O)CCCCCCC(=O)NO)cc4)ncc3F)cc2n1C(C)C", "test": "enzyme activity, inhibitor", "conditions": "1 µM", "measurement": "inhibition", "result": "41%"}
